Measured values of several laboratories.
A part holds a random share of what one study measured. Positions count from the first letter of the parent shown.

Sample 1
Target: CCNB1, cyclin fold, Cln2 fusion (human)
Technique: yeast growth competition, sequencing
Matrix: yeast
Setting: weak parent motif
Reference: not given
Direction: higher = stronger binding
Parent: CDC25A docking peptide (human); PPHRRRLLFACSP
Substitution | normalised enrichment score
C11A | 1.29
L8S | 0.449
R5Y | -0.0136
P1A | 0.315
P13L | 0.776
R6G | 0.105
L7N | 0.418
S12E | 1.02
F9H | 0.251
F9R | 1.32
S12K | 0.497
P13A | 0.668
H3A | 0.119
R5C | 0.321
L8F | 0.23
R4G | 0.501
C11T | 0.236
R4V | 0.955
R4N | 0.616
L7H | 0.287
H3E | 0.0469
P2A | 0.607
R5H | 0.712
C11E | 0.569
P13C | 0.75

Sample 2
Target: Sal-like protein 4, full length isoform A (SALL4, Homo sapiens, UniProt Q9UJQ4, residues 1-1053)
UniProt Q9UJQ4, sequence (whole entry, looked up): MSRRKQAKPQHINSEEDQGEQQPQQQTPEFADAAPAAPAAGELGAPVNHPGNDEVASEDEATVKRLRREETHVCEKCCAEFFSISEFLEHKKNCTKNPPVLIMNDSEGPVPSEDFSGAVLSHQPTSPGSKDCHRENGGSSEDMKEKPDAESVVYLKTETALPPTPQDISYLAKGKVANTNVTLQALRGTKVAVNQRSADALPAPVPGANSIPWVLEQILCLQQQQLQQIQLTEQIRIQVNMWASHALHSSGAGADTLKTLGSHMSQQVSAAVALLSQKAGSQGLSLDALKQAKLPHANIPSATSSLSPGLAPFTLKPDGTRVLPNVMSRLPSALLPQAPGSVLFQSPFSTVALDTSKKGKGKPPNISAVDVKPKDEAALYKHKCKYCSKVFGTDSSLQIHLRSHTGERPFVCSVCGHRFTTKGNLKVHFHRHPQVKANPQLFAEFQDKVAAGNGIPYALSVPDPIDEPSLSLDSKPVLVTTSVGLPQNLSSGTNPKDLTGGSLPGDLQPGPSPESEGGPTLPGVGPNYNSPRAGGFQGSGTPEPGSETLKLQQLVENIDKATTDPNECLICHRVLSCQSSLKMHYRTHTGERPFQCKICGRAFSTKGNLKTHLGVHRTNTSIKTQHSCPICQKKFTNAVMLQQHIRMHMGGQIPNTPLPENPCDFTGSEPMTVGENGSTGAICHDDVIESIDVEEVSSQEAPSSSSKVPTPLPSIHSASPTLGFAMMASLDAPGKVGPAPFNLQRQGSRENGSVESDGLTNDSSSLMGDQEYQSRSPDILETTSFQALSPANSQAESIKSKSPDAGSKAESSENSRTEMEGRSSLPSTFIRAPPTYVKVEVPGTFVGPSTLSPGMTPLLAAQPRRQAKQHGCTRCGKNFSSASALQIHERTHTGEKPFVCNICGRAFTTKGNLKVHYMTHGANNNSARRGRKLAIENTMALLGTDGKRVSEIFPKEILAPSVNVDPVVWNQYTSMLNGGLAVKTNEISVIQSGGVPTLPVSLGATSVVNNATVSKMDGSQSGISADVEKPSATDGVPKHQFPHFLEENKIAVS
Technique: universal PBM
Molecule type: double-stranded DNA, one strand shown
Matrix: in vitro
Tested at: 600 nM
Setting: 8-mer, flanks averaged, mean of replicates
Direction: higher = stronger binding
Oligonucleotide | E-score
CTAGCCAC | -0.255
AGTAATGC | 0.0169
GATCAGGA | -0.136
TAGGACAA | 0.208
CATCAGCC | -0.158
AACGAGGG | -0.00722
AACGCAGA | 0.0413
CCCTACTA | -0.127
GATTCGGC | -0.183
ATTTGTCC | 0.202
CTCCACTC | -0.142
AATTCCGT | 0.145
ACGAGTCA | 0.0407
CAAGCATG | 0.0209
ATGGCGTG | -0.0462
GGTTCCTA | -0.0965
CCAACGGG | -0.276
GGTCGCTA | -0.178
ACGACTCC | -0.161
ACGGGACA | -0.0896
ATTATCTA | 0.309
CCTCGATA | 0.21
GTTGCAGA | -0.0672
CTGCAAGC | -0.176
GGCTTGTA | -0.0369

Sample 3
Target: CEP164, C-terminal peptide (human)
Technique: DHFR complementation, deep sequencing
Matrix: yeast
Setting: single substitutions, model-inferred values
Reference: wild type
Direction: higher = weaker binding
Parent: PDZK1, PDZ domain 2 (human); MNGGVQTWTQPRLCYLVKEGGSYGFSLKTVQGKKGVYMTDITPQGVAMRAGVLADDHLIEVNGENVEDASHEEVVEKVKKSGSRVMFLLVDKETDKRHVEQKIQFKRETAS; partner HNRVKVYRF
Substitution | binding free energy change [kcal/mol]
G45E | 1.05
G20F | 0.348
M38N | 1.48
H98R | -0.151
T39K | 1.65
G21N | 0.0609
V90G | -0.19
G63A | 0.344
T42C | 0.278
T39V | 0.121
R107M | -0.0764
E108L | -0.187
E100Y | -0.0825
D40I | 0.695
S22T | -0.159
D95L | -0.0438
Y37K | 0.82

Sample 4
Target: ABI1, truncated, D143A, DHFR fusion (Arabidopsis thaliana)
Technique: DHFR PCA, deep sequencing
Matrix: yeast
Setting: methotrexate growth selection, single substitutions
Together with: (+)-ABA 0.39 µM
Reference: wild-type fitted maximum
Direction: higher = stronger binding
Parent: PYL1, truncated, DHFR fusion (Arabidopsis thaliana); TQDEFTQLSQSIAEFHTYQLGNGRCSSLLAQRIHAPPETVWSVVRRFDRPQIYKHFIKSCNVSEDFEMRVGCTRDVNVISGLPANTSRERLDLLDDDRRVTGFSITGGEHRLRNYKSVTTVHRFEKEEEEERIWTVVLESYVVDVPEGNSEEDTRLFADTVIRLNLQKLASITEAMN
Substitution | relative binding score
D65P | 57.7%
D75M | 47.1%
E174T | 6.12%
S27M | -0.841%
E125K | 45.9%
T1K | 42.3%
V121M | -9.04%
L166D | 1.23%
D65W | -7.04%
N85M | 63.1%
F5W | 49.7%
I12Y | -1.21%

Sample 5
Target: Fragile X messenger ribonucleoprotein 1, C-terminal low-complexity region (Fmr1, Mus musculus, UniProt P35922)
Technique: RNA Bind-n-Seq
Molecule type: RNA
Matrix: in vitro
Tested at: 200 nM
Setting: whole 134-nt RNA, ends assumed
Together with: 150 mM KCl
Reference: input library
Direction: higher = stronger binding
Constant ends, left off below: GGGAGUUCUACAGUCCGACGAUC … UGGAAUUCUCGGGUGUCAAGG
Oligonucleotide | log2 enrichment
AGUCCUGUGCUACACAUCGUAUGUACCGAAUCGGGGUUUUUGGGGUGGGGAAAGGGGAAAGUAUUAUGUUACGCCGUUCGGAUCUGCACU | 0.65
UUACUAGAAAAGGCAGAAGCCCGUGAACGUGAAAGAGAAAAAGAAGAGGCUCGGAAGAUGAAACGAAAAGAAUCUGCAUUUAAGAGUAUG | -1.47
UCCUGUGCUACACAUCGUAUGUACCGAAUCAAACCCCCAAAUUUUUAAACCCCCCCAAAAAAGUAUUAUGUUACGCCGUUCGGAUCUGCA | -0.0495
UGUGCUACACAUCGUAUGUACCGAAUCGGGGUUUUUUUGGGGAAAAAGGGGUUUUUUUGGGGAAAGUAUUAUGUUACGCCGUUCGGAUCU | 0.391
AAGUCCUGUGCUACACAUCGUAUGUACCGAAUCGGUUUUUGGUUUGGAAAAAAAGGAAAGUAUUAUGUUACGCCGUUCGGAUCUGCACUU | -1.15
GUCCUGUGCUACACAUCGUAUGUACCGAAUCAAAUUUUUUUAAAUUUAAAUUUUUAAAAAAGUAUUAUGUUACGCCGUUCGGAUCUGCAC | -1.18
UGGCCCUGGUGGCCUGCGGGGAGGAAGAGGUGGCCUCAUGGAUCGUGGUGGUCCCGGUGGAAUGUUCAGAGGUGGCCGUGGUGGAGACAG | 0.0772
CAAGUCCUGUGCUACACAUCGUAUGUACCGAAUCGGGAGGGUGGGUUUUUUUGGGAAAGUAUUAUGUUACGCCGUUCGGAUCUGCACUUC | 0.97
ACCAUGCAGGUGGGCAUCUUUGGGAAGUGGGGCAAGGGGGGGAUAGGGAGGGGGGUAACACUUUGGGAACAGGUGGUCCCAGGUCUUUUC | 0.662

Further values, each from its own experiment
Molecule | target | test | system | setting | how to read | quantity | value
PhoQ, residues 284 288 289 292 302 303 AGHLVA | PhoP, residues 12 14 15 18 19 AWHSL (Escherichia coli, UniProt P23836) | Sort-seq, measured: YFP reporter | E. coli | PhoQ-PhoP variant library, together with: 10 µM Mg2+ | reference: high Mg2+ state, higher = stronger signaling | fold induction | 1.36

Some of these lines once more (sample 4):
Substitution | relative binding score
E125K | 45.9%
T1K | 42.3%
V121M | -9.04%
L166D | 1.23%
D65W | -7.04%
N85M | 63.1%
